Published values pooled from the literature.
Each line is one published result; not all experiments were run side by side.
Target: Histone deacetylase 4 (HDAC4, Homo sapiens, UniProt P56524)
Sequence of UniProt P56524 (whole entry, looked up): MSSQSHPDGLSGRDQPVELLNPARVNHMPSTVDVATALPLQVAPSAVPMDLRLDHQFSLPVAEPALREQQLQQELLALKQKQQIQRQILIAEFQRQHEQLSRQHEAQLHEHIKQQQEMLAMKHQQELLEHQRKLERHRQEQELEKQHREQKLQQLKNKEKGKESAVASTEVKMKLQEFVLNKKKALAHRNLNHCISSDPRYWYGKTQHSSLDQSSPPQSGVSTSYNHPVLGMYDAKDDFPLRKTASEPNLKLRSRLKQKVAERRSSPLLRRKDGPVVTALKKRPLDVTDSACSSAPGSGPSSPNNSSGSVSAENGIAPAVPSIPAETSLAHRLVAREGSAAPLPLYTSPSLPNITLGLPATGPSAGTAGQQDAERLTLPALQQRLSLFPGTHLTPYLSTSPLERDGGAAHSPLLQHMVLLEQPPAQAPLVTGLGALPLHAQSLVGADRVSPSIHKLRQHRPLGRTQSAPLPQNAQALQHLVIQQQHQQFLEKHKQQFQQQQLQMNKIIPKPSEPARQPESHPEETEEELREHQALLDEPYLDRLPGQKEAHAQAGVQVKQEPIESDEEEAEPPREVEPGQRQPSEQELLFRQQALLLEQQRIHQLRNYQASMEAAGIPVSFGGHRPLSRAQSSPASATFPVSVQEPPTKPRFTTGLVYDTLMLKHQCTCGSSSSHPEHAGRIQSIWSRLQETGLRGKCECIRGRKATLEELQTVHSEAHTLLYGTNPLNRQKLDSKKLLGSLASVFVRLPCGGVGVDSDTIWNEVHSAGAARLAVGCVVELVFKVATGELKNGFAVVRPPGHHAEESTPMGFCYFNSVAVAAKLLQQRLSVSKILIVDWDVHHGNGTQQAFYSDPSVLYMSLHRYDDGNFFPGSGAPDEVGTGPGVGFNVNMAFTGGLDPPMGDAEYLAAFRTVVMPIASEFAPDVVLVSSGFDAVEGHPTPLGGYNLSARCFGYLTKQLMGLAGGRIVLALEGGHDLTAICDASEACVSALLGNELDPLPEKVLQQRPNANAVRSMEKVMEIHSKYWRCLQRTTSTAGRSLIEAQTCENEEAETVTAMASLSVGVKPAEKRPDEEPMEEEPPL

O=C(CCNc1cccc2c1C(=O)N(C1CCC(=O)NC1=O)C2=O)NCCOCCOCCOCCN1CCC(CNC(=O)c2cccc(-c3noc(C(F)(F)F)n3)c2)(c2nc(-c3ccccc3)cs2)CC1 (stereo not shown) — IC50: 1.79 µM
COc1ccc(C(=O)NO)cc1NC(=O)c1ccc(-c2ccccc2)cc1 — Kd (inhibitor, competition pulldown; SW620 and MV4-11 lysate; 1 h): > 30.2 µM
CCCCCCCCCCCCCCN(O)C(=O)CCCCC[C@@H]1NC(=O)[C@H]([C@@H](C)CC)NC(=O)[C@H](Cc2ccccc2C(F)(F)F)NC(=O)CCSCc2cccc(n2)CSCCCNC1=O — IC50 (enzyme activity, inhibitor, fluorogenic): > 30 µM
O=C(CCc1ccc(CNC(C(=O)OC2CCCC2)C2CCCCC2)cn1)NO (stereo not shown) — IC50 (enzyme activity, inhibitor): > 10 µM
O=C(NO)c1cnc(NC2(c3cccc(F)c3)CCCCC2)nc1 — Kd (inhibitor, competition pulldown; SW620 and MV4-11 lysate; 1 h): > 30.2 µM
Cc1nc2c(F)cc(-c3nc(Nc4ccc(CNC(=O)CCCCCCC(=O)NO)cc4)ncc3F)cc2n1C(C)C — IC50 (enzyme activity, inhibitor): > 10 µM
O=C(CNc1cccc2c1C(=O)N(C1CCC(=O)NC1=O)C2=O)NCCOCCOCCOCC(=O)N1CCC(CNC(=O)c2cccc(-c3noc(C(F)(F)F)n3)c2)(c2nc(-c3ccccc3)cs2)CC1 (stereo not shown) — IC50: 1.58 µM
CC[C@H](C)[C@@H]1NC(=O)[C@H](Cc2ccccc2C(F)(F)F)NC(=O)CCSCc2cccc(n2)CSCCCNC(=O)[C@H](CCCCCC(=O)O)NC1=O — IC50 (enzyme activity, inhibitor, fluorogenic): > 30 µM
O=C1CCC(N2C(=O)c3ccc(N4CC(C(=O)N5CC(CCN6CCC(CNC(=O)c7cccc(-c8noc(C(F)(F)F)n8)c7)(c7nc(-c8ccccc8)cs7)CC6)C5)C4)cc3C2=O)C(=O)N1 (stereo not shown) — IC50: 0.45 µM
Nc1ccc(-c2ccc(F)cc2)cc1NC(=O)C1CCOCC1 — IC50 (enzyme activity, inhibitor): > 33.3 µM

Excerpt of the above:
O=C(CNc1cccc2c1C(=O)N(C1CCC(=O)NC1=O)C2=O)NCCOCCOCCOCC(=O)N1CCC(CNC(=O)c2cccc(-c3noc(C(F)(F)F)n3)c2)(c2nc(-c3ccccc3)cs2)CC1 (stereo not shown) — IC50: 1.58 µM
